Measured values gathered from unrelated publications.
A part holds a random share of what one study measured.

Block 1
Target: RING finger protein unkempt homolog, zinc fingers 1-6, GST-SBP tag (UNK, Homo sapiens, UniProt Q9C0B0, residues 30-357)
Sequence of UniProt Q9C0B0 (30-357, looked up): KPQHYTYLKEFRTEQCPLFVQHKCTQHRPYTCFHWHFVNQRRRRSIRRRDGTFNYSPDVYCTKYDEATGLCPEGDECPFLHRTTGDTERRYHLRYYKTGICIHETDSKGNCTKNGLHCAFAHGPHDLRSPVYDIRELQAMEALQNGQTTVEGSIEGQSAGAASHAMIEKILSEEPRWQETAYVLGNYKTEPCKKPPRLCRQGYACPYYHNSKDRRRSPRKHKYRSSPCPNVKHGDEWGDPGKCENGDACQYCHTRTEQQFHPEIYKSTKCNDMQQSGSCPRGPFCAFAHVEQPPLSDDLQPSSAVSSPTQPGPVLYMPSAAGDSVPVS
Technique: RNA Bind-n-Seq
Form: RNA
Matrix: in vitro
Concentration: not given
Notes: RNA with constant flanks, ends assumed
Relative to: input RNA pool
Direction: higher = stronger binding
Measurement: bound/input enrichment
All sequences stand within: GGGAGUUCUACAGUCCGACGAUC … CAACAGAGGAUUGAGCAUCA
CUGUGUUAUAUGUCAUAUUUAGCGUUUUUAUAUAUGACCUUUGAUUUCUGUUGUUUGUAUUUCCGCACAGUGUAUGCACCUUCAUUUAAAUACAUCUGUGUGCAUACAGAUACGCAUAUA: 1.71 ratio
GACCCAGGAAGCAAAGACCCAGAAGAAGAUUACCCCAAGUUUGGACUUUUGGAUCAGGAUCUCCGUAAUAUUGGUCCUGCUUAUGACAACCAGAAACAAAGCAGUGCUGUGUCUGCUAGU: 0.167 ratio
AUUGUUGAAGCGAAUCCACUUUUAGAAGCAUUUGGAAAUGCAAAGACUGUUCGCAACAAUAACCGCAGUCGAUUUGGAAAAUUUGUAGAAAUUCAUUUCAAUGAAAAGAGUUCGGUUGUU: 0.287 ratio
GAAGAAGCCUGCUUCACUCUCCAGUACCUAAACAAAUUGUCCAUGAAACCAGAACCUCUGUUCCGAAGUGUAGGCAAUACUAUUGAUCCUGUCAUUCUUUUCCAAAAAAUGGGAGUAGGU: 0.238 ratio
UAUGUUUACGGAGUCCUGUUUAGUUUGGCAGAAAGCAGAAAGAAAACUGAGAGACUUGCUUUCCGAAAGAACAGACUUCCACCAGAAUUUUCACCAGUGAUCAUUAAAGAAUGGGCAGCU: 0.589 ratio
GCCUGGAGAUUUGCGCCCGCACAUGGUCAUUGGUUUUCCGAAAAGAGAGGGUAAAUUUAUACCGAAAUUUACAGGUAUUUGGGUAGUCAUUUAGACCGAGGGAGACCAGUGUUUCCAUUU: 0.207 ratio
GCGAACAGCCAUUAGGAAGAAUGCUGAGUGCUCCGGCGUGAGUCGUGACUUCUGAUGACCCCGCAAAUAAUGCCACACACUGCAAUACUGUGAAGACACUCGCAAGGAUACAGCAGUGAU: 0.177 ratio
GGCUCCAGGAGCUGUCCUUGAACUUGGAGAAGGAUUUGGGUAAGAAUGCCAGUCCCCGAGUCCGCCGCACGAGGCUUUGUGCCUUGCCCCCAUUGAUGUCUGAUAUUGCUGCAAUCCAGG: 0.131 ratio

Block 2
Target: RNA binding protein fox-1 homolog 2, RRM domain, GST-SBP tag (RBFOX2, Homo sapiens, UniProt O43251-10, residues 100-194)
Technique: RNA Bind-n-Seq
Form: RNA
Matrix: in vitro
Concentration: 365 nM
Notes: natural RNA segment, single round, ends assumed
Relative to: no-protein control
Direction: higher = stronger binding
Measurement: RBNS enrichment (R)
All sequences stand within: GGGAGUUCUACAGUCCGACGAUC … UGGAAUUCUCGGGUGCCAA
Target sequence (chain): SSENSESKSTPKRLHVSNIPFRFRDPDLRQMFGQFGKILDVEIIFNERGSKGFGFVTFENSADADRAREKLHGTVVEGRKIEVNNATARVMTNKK
AUUUGGUUUUGUUUCUGAUUUCAUGUUCCUUUGAGGUACAGUCAGAUGAAAAUGCUGAGUUCUGAGAGAGUUCCAAUGAGGAGCUGCCUUUCAGCUUUGGAAAAUAUGCA: 2.43
GCCGCUACCCGGUUCAUUUAUUUGCAAUUUGAGCCAUUUAAAGACCAAUAAAAUUCCUUUUCUAUAAUGUCUGUGGUGUUCAUUGAUGUUUACAGCGUGAUAGUCUUACU: 0.315
CAUCUUAGAUUUGUCGAUACCUUCGAAAUUUGAUGGUUUCAUCCCAAAUGACUGCACUAUAUGUAUGCAUACGGCCACUUUUGAUUGCUGCGCCCCUUCUGAGUAGUCUU: 0.798
GAAAGGGGUGAAGGCUGUGGACCCCAAGACUGGCCGGGAGAUCCCUUACACAUUUGAGGACCGAAUCAACUUUGCCGUGUUCCCAUCCCUGCAGGGGGGCCCCCACAAUC: 0.158
GUAGCUGAAUAAGGGGUCAGAACUUCUGAAACCAGAGAUCUGUAAUCAUCUCUAUUGGCCUGGGGUGCCUGUGCUAUAAAUGAGUUUCUUCACAUGAAAAACACAGCCAG: 0.224
CCGACCAUACAAACGAAGAAAUGAAGACGAGAAGGCCUCAUAUUCUAAUACCUCACUCAUUGACACGUGAGCAACACAAAGACAUUCACAAGGGCCGGCAUCACCAGACC: 0.724
UGGUGUGAAAUGAUCUAUGGCCUGUUUCUUACACAGGAAGCCCCCUGAACCUCCUGUACAUGUGUUCAUGUUCCCAGCCAGCUCUGAGACCCAGGAACCAAAUAUUCCAU: 0.361
AGCCCUUGAAGUCACCCGGCCCCCAUGCAAGGUGCCCACAUGUGUCCAUCCCAGCGGCUGGUGCAGGGCCUCCAUUCCUGGAGCCCGAGGCACCAGUGUCCUCCCCUCAA: 0.253
GGCCCUGUGUGAAGUAUUUCGAAUCUCCUCCUUGCUCUGAAACUUCAGCGAUUCCAUUGUGAUAAGCGCACAAACAGCACUGUCUGUCGGUAAUCGGUACUACUUUAUUA: 0.339

Block 3
Target: Interferon regulatory factor 7, full length, phosphomimetic (IRF7, Homo sapiens, UniProt Q92985, residues 1-503, S471D/S472D/S475D/S476D/S477D/S483D/S484D/S487D)
Sequence of UniProt Q92985 (whole entry, unmodified, looked up): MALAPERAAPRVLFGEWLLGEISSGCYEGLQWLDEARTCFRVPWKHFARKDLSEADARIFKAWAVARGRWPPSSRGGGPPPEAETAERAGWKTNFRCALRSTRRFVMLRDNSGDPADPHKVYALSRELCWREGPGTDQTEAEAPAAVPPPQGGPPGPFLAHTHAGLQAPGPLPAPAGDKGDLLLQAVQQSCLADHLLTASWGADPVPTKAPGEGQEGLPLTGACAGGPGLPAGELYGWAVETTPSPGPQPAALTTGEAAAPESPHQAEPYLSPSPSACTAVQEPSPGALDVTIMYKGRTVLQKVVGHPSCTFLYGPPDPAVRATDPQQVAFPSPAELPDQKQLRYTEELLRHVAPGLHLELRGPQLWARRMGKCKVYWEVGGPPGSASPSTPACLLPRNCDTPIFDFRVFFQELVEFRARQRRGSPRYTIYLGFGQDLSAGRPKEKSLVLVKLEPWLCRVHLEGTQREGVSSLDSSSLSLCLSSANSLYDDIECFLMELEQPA
Technique: protein-binding microarray
Form: double-stranded DNA, one strand shown
Matrix: in vitro
Concentration: 2200 nM top
Notes: 60-bp whole probe
Added: salmon DNA 0.4 mg/ml
Relative to: random background probes
Direction: higher = stronger binding
Measurement: fitted relative affinity
All sequences stand within: GCCTAGCAC … GTCTTGATTCGCTTGACGCTGCTG
TTAGGTATCGGATTCGGTTAGTGCTAG: 2.06 z-score
GACGGTCTCCGTATCGGGACGTGCTAG: -0.0156 z-score
GACGGGATCCTACTGCTGACGTGCTAG: 0.224 z-score
GACGGTATCAACACTGGGGACGTGCTA: -0.171 z-score
GACGGACTGGTTATCCTGACGTGCTAG: -0.161 z-score
GACTGTCTCGGTTTCGGGACGTGCTAG: 3.73 z-score
TTAGAACTGGGGTCTCGATTAGTGCTA: 0.0176 z-score
TTAGGACTGCGGACTGGGTTAGTGCTA: -0.898 z-score
TTAGGTTTCCTTCTCCTTAAGTGCTAG: 2.38 z-score
TCAGGTTTTCTAATGTTACTGTGCTAG: 1.01 z-score
AGCAGTTTCTCAACCACTTTGTGCTAG: 0.723 z-score
TTAGGACTCCTTCTCCTTTAGTGCTAG: 0.786 z-score
TCATTTGTCACTCTCAGACTGTGCTAG: 1.65 z-score
TTAGGGCTGGGGACTGGGTTAGTGCTA: -1.11 z-score
GACGGACTCGACTTTCGGGACGTGCTA: 2.74 z-score
ACAAATGGCCAACAAACATTGTGCTAG: -0.228 z-score
GACGATTCCAGTTTCGTGACGTGCTAG: 3.01 z-score
GACGACTTCAGTTCCGAGACGTGCTAG: 0.447 z-score
GACGGTATCCTACTGCTGACGTGCTAG: 0.588 z-score
TCATTAATAAGGTTTCCAACTGTGCTA: 0.082 z-score
TTAGATTTCGGGACTGGAGTAGTGCTA: 0.945 z-score

Block 4
Target: Centromere-binding protein 1, full length, His-tagged (CBF1, Saccharomyces cerevisiae, UniProt P17106, residues 1-351)
Sequence of UniProt P17106 (whole entry, looked up): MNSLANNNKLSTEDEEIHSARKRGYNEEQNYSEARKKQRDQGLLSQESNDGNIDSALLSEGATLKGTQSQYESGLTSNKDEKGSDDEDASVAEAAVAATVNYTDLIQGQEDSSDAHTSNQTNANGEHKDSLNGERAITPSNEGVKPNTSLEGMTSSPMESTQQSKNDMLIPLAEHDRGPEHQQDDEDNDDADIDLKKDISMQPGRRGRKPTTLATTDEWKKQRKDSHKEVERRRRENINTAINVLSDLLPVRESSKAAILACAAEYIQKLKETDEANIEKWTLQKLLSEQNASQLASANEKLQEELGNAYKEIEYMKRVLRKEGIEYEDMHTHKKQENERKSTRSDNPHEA
Technique: competition protein-binding microarray
Form: double-stranded DNA, one strand shown
Matrix: in vitro
Concentration: 2 µM
Notes: whole 60-bp probe, lowest competitor level
Added: Pho4 competitor, 0.05 µM
Direction: higher = stronger binding
Measurement: fluorescence intensity
All sequences stand within: … GTCTTGATTCGCTTGACGCTGCTG
GTCTTGTCTCATTGCTGAGTGGGTGTCCCCACTTCA: 84.6 a.u.
CTTTCCCGATCTTGTCACAAAACTTTAGCACATTTG: 72.4 a.u.
TGGTAATTCAACCGTCACGGGTGTAGAAAATGGTGA: 473 a.u.
CCGCTCGCCCATTCGCACATGGCTTCTCAAGGATCG: 69.5 a.u.
CTTTTGAGAATTGTCAACGTGGGTAGGTTCGTTTCG: 109 a.u.
CGTCCTAGTGATTGTCACGCCACTTCCATGAGGAAG: 249 a.u.
AAATTACTAAGTTGTTACGTGGGTGACGCCGTATGA: 60.2 a.u.
AAATTACTAAGTTTTCACGTGGGGTACCCCGTATGA: 690 a.u.
AAAGCGGTAATTTGGAAAGTGGGTGCAGATATCTAT: 86 a.u.
TTGGACAAGCTGGCACACCTGATCGACGAGACACCG: 96.4 a.u.
CGGGGTTAAGTTTGGGTGGTGGGTGGCTTGCAGCAG: 59.1 a.u.
CGTCCTAGTGATTGTCACGCGACTTCCATGAGGAAG: 634 a.u.
AAGCATGGTGCCGTTCACATGTCCACCTACTTGAAG: 169 a.u.
AGGCCTATCTTCTCACGCCTGAGGAACCTGCCAAGA: 62.4 a.u.
AGAAAATCATATCACCACGTGGACCTCTCAAAGACT: 1110 a.u.
TTGCTGCGATTGCTGCTCGTGAAACGGAAAAAGCTA: 75 a.u.
CATACCCAACCTTGGAGCGTGGGTGAAGATATTTGT: 66.4 a.u.
GATCGATTCGGCTGTCATGCCAAGATGCGAGTATGT: 67.5 a.u.
TATATGTTTCACTGGCACGTTTTGTTTTGTCCCCTT: 136 a.u.
GGCTTCTTGAGTGTAAACGTGAGCCCTGTAATCTCA: 117 a.u.
ATATCATTTCGCCAACACGTGAGATATCATCTGGCT: 1490 a.u.
CTTCTGTAAATTTGATCTGTGGGTGGACGCGCCCCG: 78.9 a.u.
CATACCCAACCTTGCGAAGTGGGTGAAGATATTTGT: 57.3 a.u.
CTAACGAAGGTTTGAAAGGTGGGTGACAAGCCAAGT: 63.2 a.u.
CGGAATATGTTAGACCATGTGGTACCGTCGTTTTGG: 154 a.u.
